Assay results from different studies.
Numbered parts are unrelated; each lists some results of a single study.

Study 1 — technique: RNA Bind-n-Seq; form: RNA; medium: in vitro; tested at: 365 nM; relative to: no-protein control; direction: higher = stronger binding; endpoint: RBNS enrichment (R)
Target: RNA binding protein fox-1 homolog 2, RRM domain, GST-SBP tag (RBFOX2, Homo sapiens, UniProt O43251-10, residues 100-194)
Setting: natural RNA segment, single round, ends assumed
Shared flanks, not repeated: GGGAGUUCUACAGUCCGACGAUC … UGGAAUUCUCGGGUGCCAA
Residues (chain): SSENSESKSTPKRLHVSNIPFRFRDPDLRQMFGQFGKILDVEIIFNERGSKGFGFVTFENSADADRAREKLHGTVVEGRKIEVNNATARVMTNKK
Strand = AGAUGUGUUUGCAGAAAGAAGGAACAAGGCAUCGGGAGAGCGUUUACUCCUAGUCCUACCAGUAAGGCGUCCACUUGCAAUGGUAACUGAGUCCACAAACAGCUGUUAGA; value = 0.983
Strand = CCUGGGGAAACCCUUGGGGAAAAAAAAACAGUUCCUAAGUAGUGUGCCUGUCAACUUUGCAGACUGCUUUUGGCUUCUGGAUGCGCUCCUUCAGUACACAUCCUAUGGCG; value = 0.263
Strand = UUUAAGUCCUCUAAUAAAAAUAAUGAGCCCUCCAAGUCCCUCUUGAUAGCUUCUAUUUGUUAGAAGAUGACCUAAGUCAGAAAAAAGUAGUUCCCCCUUCCUGAGAGACU; value = 0.228
Strand = GGGUGGUUUUUCACUGAAAAGGGGGGUACACCUAUAGCUUUCUUGAUGUUCAAUCAAUCAGUCACUGUGUCCCAGACAUAUUCAAUAAACACAGAUUGGUACCACCCAGC; value = 0.493
Strand = AAUUAAAAAUGCCAAAUAUCGCGCCUCCAUCCUUUAUACUUCUAAAAUAAAAUCUCUAGUCCAAACACACUGACAGUAUUAUGUUUGCCUGAAUGUGAAACAUUCCUCCU; value = 1.1
Strand = CUUCAUUUCUGGUGGCUUGGCUCUUGAGGUCACAGAUGAAGCUACACGUGGGCUGAGCUGACUUGAUGCUCCUAUGGGUGGUGCCCGGCCCCCACGGGGGUUCACUAGGU; value = 2.68
Strand = UGGAGUUCUGAACCCAUGAUGUUGUAUUAUGCUUCUUUCUCCUCUUAGCACUCUCAAAUUUCAGGUUUGUAAAACACAGUUUUUGUUUUGUGUUCUGGCAAAGUGAUCUC; value = 0.365

Study 2 — technique: protein binding microarray; form: double-stranded DNA, one strand shown; medium: in vitro; tested at: not given; relative to: not given; direction: higher = stronger binding; endpoint: E-score
Target: Histone acetyltransferase KAT6A, winged helix 1, GST fusion (KAT6A, Homo sapiens, UniProt Q92794, residues 1-85)
Setting: 8-mer, flanks averaged, mean of 2 arrays, mostly near background
Residues (chain): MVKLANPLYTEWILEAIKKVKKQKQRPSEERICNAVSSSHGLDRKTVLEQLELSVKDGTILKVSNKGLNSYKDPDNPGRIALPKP
Strand = ACAACTAT; value = -0.0878
Strand = CGTAGGTA; value = 0.111
Strand = TAGGTTCA; value = -0.128
Strand = CGAATGAG; value = -0.0485
Strand = GAACTAGA; value = -0.0747
Strand = GCAATCCC; value = 0.122
Strand = ATGGATAC; value = -0.188
Strand = ACCAAAGG; value = -0.126
Strand = CAAATTCC; value = -0.178
Strand = GCGTGGTA; value = 0.209
Strand = GTAGATAC; value = -0.0678
Strand = AAAAGCAT; value = -0.118
Strand = CAGGACCG; value = 0.0277
Strand = GGAGGCCC; value = 0.067
Strand = AGACACTG; value = -0.169
Strand = TTGGCCAA; value = -0.0615
Strand = AACTAATC; value = -0.0976
Strand = TACTTAAA; value = -0.117
Strand = CATGTGAA; value = -0.0261
Strand = ACTCCTCC; value = -0.0754
Strand = AACCGGTG; value = 0.215
Strand = AAATCTTG; value = -0.147
Strand = GTATACAA; value = -0.147
Strand = AGCCGAAT; value = 0.0591
Strand = CTACTACC; value = 0.147

Study 3 — technique: RNA Bind-n-Seq; form: RNA; medium: in vitro; tested at: not given; relative to: input RNA pool; direction: higher = stronger binding; endpoint: bound/input enrichment
Target: RING finger protein unkempt homolog, zinc fingers 1-6, GST-SBP tag (UNK, Homo sapiens, UniProt Q9C0B0, residues 30-357)
Chain of UniProt Q9C0B0 (30-357, looked up): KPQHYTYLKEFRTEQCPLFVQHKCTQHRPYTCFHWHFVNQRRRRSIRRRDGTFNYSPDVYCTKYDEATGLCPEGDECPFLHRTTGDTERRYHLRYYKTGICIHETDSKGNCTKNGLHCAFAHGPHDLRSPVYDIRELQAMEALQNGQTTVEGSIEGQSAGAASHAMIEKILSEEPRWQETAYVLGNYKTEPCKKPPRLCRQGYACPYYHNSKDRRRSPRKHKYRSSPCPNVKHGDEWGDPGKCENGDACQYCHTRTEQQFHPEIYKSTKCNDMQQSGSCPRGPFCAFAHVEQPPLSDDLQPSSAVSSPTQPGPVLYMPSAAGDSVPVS
Setting: RNA with constant flanks, human and mouse sites, ends assumed
Shared flanks, not repeated: GGGAGUUCUACAGUCCGACGAUC … CAACAGAGGAUUGAGCAUCA
Strand = CGCCUACUCGGGGGAGGAACUUAAAGGGCCGGCUGUUUCGGCGGCCGCGGGAUGCCCCUGCGCUGACCGCCAGGGGCAGGUGCCCGCCCGCGUAGACGCACCCGGCCUGACCCCGCGCCA; value = 0.168 ratio
Strand = GUUAUUUAUGGAUUAGAAAAAGCAUGUUUCUAUUUAAGUAAGCUGUAAAAAGUAUUAUUGAAUAUUUACUGUAAAUAUAUGUUCACAUAAAAAAAUAACUUGGAGGGUCUUUGUGUCCCU; value = 0.257 ratio
Strand = AAGCAUGAGUAUCAAGCAAAUGGGCCAGAAGACCUCAAUCGGACCUGUAUUGCUGAAAAGCUAGGUGGCUCCUUAAUUGUAGCCUUUGAAGGAUCCCCUGUGUAGACCGCCAGUCAGUGC; value = 0.389 ratio
Strand = AGGCCCCAAACCCAGCCGUUUAUAUGAAAUUGUAGAAUUUUUAACUAUUGGAAACAAAUGGUUUUUUUAUAUAUACUUACUAUGCAGGCCAAAGGGGCCCCACGGACUCACCCAGGGACA; value = 0.624 ratio
Strand = AAUGAGCAGCAGAGACUGAGAACCACUGAAGUACACAGUUGGAAGCUGGUGCUGAAAAAAUUAAGAGUUUUGCUGUUAACUCCUUAAGAGGGCUUUAAAGCCUUUUAUAUUAAGUGCCAU; value = 0.195 ratio

Study 4 — technique: universal PBM; form: double-stranded DNA, one strand shown; medium: in vitro; tested at: not given; direction: higher = stronger binding; endpoint: E-score
Target: Sal-like protein 4, full length isoform B (SALL4, Homo sapiens, UniProt Q9UJQ4-2, residues 1-616)
Setting: 8-mer, flanks averaged, mean of replicates
Target sequence (chain): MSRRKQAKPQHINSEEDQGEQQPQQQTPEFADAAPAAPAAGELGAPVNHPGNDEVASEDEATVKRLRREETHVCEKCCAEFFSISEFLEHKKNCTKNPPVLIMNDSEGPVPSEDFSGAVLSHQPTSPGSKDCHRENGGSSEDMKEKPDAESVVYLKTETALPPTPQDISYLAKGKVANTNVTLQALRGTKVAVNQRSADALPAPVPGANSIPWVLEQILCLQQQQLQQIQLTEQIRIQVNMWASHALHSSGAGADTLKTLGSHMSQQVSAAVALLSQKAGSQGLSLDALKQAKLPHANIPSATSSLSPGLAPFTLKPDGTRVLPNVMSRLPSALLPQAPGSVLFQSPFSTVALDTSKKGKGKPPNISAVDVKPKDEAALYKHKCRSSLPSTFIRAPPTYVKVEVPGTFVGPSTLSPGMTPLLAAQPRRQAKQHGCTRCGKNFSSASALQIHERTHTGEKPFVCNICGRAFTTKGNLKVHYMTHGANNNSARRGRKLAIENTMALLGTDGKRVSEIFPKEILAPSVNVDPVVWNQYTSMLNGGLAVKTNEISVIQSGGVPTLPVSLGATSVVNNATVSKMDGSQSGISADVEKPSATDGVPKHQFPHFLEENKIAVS
Strand = GGCAGTGA; value = -0.236
Strand = ATAGCCGA; value = 0.0717
Strand = ACGAGGAT; value = -0.0164
Strand = TCGGCGAA; value = -0.0751
Strand = AAGGAGAG; value = -0.0921
Strand = ATTGACTA; value = 0.0541
Strand = AGATTGCC; value = -0.0569
Strand = ATTCTATC; value = 0.225
Strand = CCTGGACG; value = -0.335
Strand = ACGGAATA; value = 0.0771
Strand = ATGGACTC; value = -0.0957
Strand = AATGCCCA; value = -0.117
Strand = AGGGATTG; value = -0.131
Strand = ACCCTGAC; value = -0.185
Strand = ATAACTTA; value = 0.375
Strand = CATGTTGG; value = 0.13
Strand = ACCAGCCA; value = -0.164
Strand = CCATGGAA; value = 0.00622
Strand = GCATTGGC; value = -0.0746
Strand = TGCACACA; value = 0.15

Study 5 — technique: protein-binding microarray; form: hairpin DNA; medium: in vitro; tested at: not given; relative to: not given; direction: higher = stronger binding; endpoint: median fluorescence; shared flanks, not repeated: GAGGCCA … TGGCCTCACACTC
Target: Hepatocyte nuclear factor 3-beta, forkhead domain (FOXA2, Homo sapiens, UniProt Q9Y261, residues 142-269)
Setting: whole hairpin DNA, median over replicate spots
Construct (chain): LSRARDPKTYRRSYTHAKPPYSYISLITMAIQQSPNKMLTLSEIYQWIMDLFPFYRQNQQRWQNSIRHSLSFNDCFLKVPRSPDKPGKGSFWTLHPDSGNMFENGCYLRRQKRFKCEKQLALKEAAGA
Strand = TGTAAACCGCGCCTCCTGGCGCGGTTTACA (5mC at 15 29); value = 3380 a.u.
Strand = TGCAAGCAACGCCTCCTGGCGTTGCTTGCA; value = 3240 a.u.
Strand = TGCTAACAACGCCTCCTGGCGTTGTTAGCA; value = 3190 a.u.
Strand = TGCAAACAACGCCTCCTGGCGTTGTTTGCA (5mC at 10); value = 6170 a.u.
Strand = TGCGAACAACGCCTCCTGGCGTTGTTCGCA (5mC at 34); value = 3330 a.u.
Strand = TGTAACGAACGCCTCCTGGCGTTCGTTACA; value = 3180 a.u.
Strand = TGCGACCAACGCCTCCTGGCGTTGGTCGCA (5mC at 34); value = 3380 a.u.
Strand = CGTAACCAACGCCTCCTGGCGTTGGTTACG; value = 3250 a.u.
Strand = TGTAACGAACGCCTCCTGGCGTTCGTTACA (5mC at 13 31); value = 3180 a.u.
Strand = TGCAAGCAACGCCTCCTGGCGTTGCTTGCA (5mC at 32); value = 4160 a.u.
Strand = TGTACCCAACGCCTCCTGGCGTTGGGTACA (5mC at 12); value = 3180 a.u.

Study 6 — technique: protein-binding microarray; form: double-stranded DNA, one strand shown; medium: in vitro; tested at: 250 nM; setting: 60-bp whole probe; together with: salmon DNA 0.4 mg/ml; relative to: random background probes; direction: higher = stronger binding; endpoint: log fluorescence; shared flanks, not repeated: GCCTAGCAC … GTCTTGATTCGCTTGACGCTGCTG
Target: Interferon regulatory factor 5, full length, phosphomimetic (IRF5, Homo sapiens, UniProt Q13568-2, residues 1-514, K96S/S451D/S453D/S456D/S462D)
Strand = TCATCTTTCACTGGTCCTACTGTGCTA; value = 3.02 z-score
Strand = TCAGAAATTCCTCTGAGACTGTGCTAG; value = -0.0541 z-score
Strand = TTAGGTTCCGGTATCGGTTAGTGCTAG; value = 6.49 z-score
Strand = GACGGTCTCGGTAACGGGACGTGCTAG; value = 0.261 z-score
Strand = TTAGGTTTTGACTATCGGTTAGTGCTA; value = 6.74 z-score
Strand = CATCATTGCTTTCTCTTTCAGTGCTAG; value = 4.7 z-score
Strand = TTAGGTAGCGGGTTTCGGTTAGTGCTA; value = 7.52 z-score
Strand = TTAGGTCTCCTTCTCATTTAGTGCTAG; value = 0.0208 z-score
Strand = TTAGATCTCGGTATCGATTAGTGCTAG; value = 4.96 z-score
Strand = CTGTGTGTCAGGTTTACTAGGGTGCTA; value = -0.506 z-score
Strand = TTAGATTTCGGGACTGGATGAGTGCTA; value = 2.49 z-score
Strand = TTAGGTTTCAGTTCCGGTTAGTGCTAG; value = 6.15 z-score
Strand = TTAGGTTCCGGTTTCGGTTAGTGCTAG; value = 9.28 z-score
Strand = GACGGTTTCCTTTCCCTGGCGTGCTAG; value = 1.3 z-score
Strand = TTAGAACTGGGAACTGGATTAGTGCTA; value = -0.276 z-score
Strand = GATGGTATTTGCCTGTGGTCGTGCTAG; value = 0.297 z-score
Strand = GACGATATCGGGTTTCGGGACGTGCTA; value = 3.95 z-score
Strand = GACGGTAACGGGTTTCGGGACGTGCTA; value = 2.07 z-score
Strand = TTGGATATCAGTATCGATTAGTGCTAG; value = 7.18 z-score
Strand = TCACCTCTAGGAATGTAACTGTGCTAG; value = -0.0375 z-score
Strand = TTAGGACTCGGTCTCGGTTAGTGCTAG; value = 0.213 z-score
Strand = GTAGATATCGGGTATCGATTAGTGCTA; value = 5.91 z-score
Strand = TCACTCTTCCTTTACTTACTGTGCTAG; value = 1.07 z-score
Strand = CACGAACTGGGGTTTCGAGACGTGCTA; value = 0.917 z-score

Some of these lines once more (study 2):
Strand = ACCAAAGG; value = -0.126
Strand = CAAATTCC; value = -0.178
Strand = GCGTGGTA; value = 0.209
Strand = GTAGATAC; value = -0.0678
Strand = AAAAGCAT; value = -0.118
Strand = CAGGACCG; value = 0.0277
Strand = GGAGGCCC; value = 0.067
Strand = AGACACTG; value = -0.169
Strand = TTGGCCAA; value = -0.0615
Strand = AACTAATC; value = -0.0976
Strand = TACTTAAA; value = -0.117
Strand = CATGTGAA; value = -0.0261
Strand = ACTCCTCC; value = -0.0754
